Measured values collected from several papers.
Every numbered part comes from another study and shows a few of its results, in no order.

Block 1 — technique: protein-binding microarray; molecule type: double-stranded DNA, one strand shown; medium: in vitro; tested at: 250 nM; setting: 60-bp whole probe; with: salmon DNA 0.4 mg/ml; baseline: random background probes; direction: higher = stronger binding; endpoint: log fluorescence; constant ends, left off below: GCCTAGCAC … GTCTTGATTCGCTTGACGCTGCTG
Target: Interferon regulatory factor 5, full length, phosphomimetic (IRF5, Homo sapiens, UniProt Q13568-2, residues 1-514, K96S/S451D/S453D/S456D/S462D)
GACGATTTCGGGACGGGAGACGTGCTA: 1.76 z-score
TCCACTTTGACTTAAGAGGCGTGCTAG: 0.0559 z-score
GACTGTTTCGGTCTCGGGACGTGCTAG: 9.14 z-score
TCAAGTTTGTAAATCTTACTGTGCTAG: 0.186 z-score
TTGGAACTGAGTTTCGATTAGTGCTAG: 9.06 z-score

Block 2 — technique: protein binding microarray; molecule type: double-stranded DNA, one strand shown; medium: in vitro; tested at: not given; baseline: not given; direction: higher = stronger binding; endpoint: E-score
Target: Histone acetyltransferase KAT6A, both winged helices, GST fusion (KAT6A, Homo sapiens, UniProt Q92794, residues 1-181)
Setting: 8-mer, flanks averaged, mean of 2 arrays, mostly near background
Construct (chain): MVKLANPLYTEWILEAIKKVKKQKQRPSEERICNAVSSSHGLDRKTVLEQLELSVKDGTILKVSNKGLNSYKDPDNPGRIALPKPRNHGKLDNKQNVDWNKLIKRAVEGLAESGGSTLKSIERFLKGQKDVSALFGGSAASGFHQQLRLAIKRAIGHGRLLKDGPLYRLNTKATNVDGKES
AAGGGAGT: -0.255
ACCGTAAG: 0.22
GACAAATC: -0.0801
AGTAGGAG: -0.248
AGCTAGCG: 0.147
CCTGTGTC: -0.0522

Block 3 — technique: RNA Bind-n-Seq; molecule type: RNA; medium: in vitro; tested at: 365 nM; baseline: no-protein control; direction: higher = stronger binding; endpoint: RBNS enrichment (R)
Target: RNA binding protein fox-1 homolog 2, RRM domain, GST-SBP tag (RBFOX2, Homo sapiens, UniProt O43251-10, residues 100-194)
Setting: natural RNA segment, single round, ends assumed
Construct (chain): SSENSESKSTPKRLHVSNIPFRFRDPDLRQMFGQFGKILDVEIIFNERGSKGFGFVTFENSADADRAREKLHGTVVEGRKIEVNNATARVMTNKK
GGGAGUUCUACAGUCCGACGAUCUGGAGUGGACUUCAGUGGGCAUUCGUGCUAAGUCACCCUCAUCGGUAAAAUACUGCAAAGAACUAACAACAACAGGUUAGUGUUGGCUCCUGAACAGUAAACCGCUCUGAUGGAAUUCUCGGGUGCCAA: 0.447
GGGAGUUCUACAGUCCGACGAUCUUUUUUCUCUUUUCCUUGAUGGACCAACAGUGCAAAUGCAAUCUCGCCAUUUAACUUUCAGGUCGAUUUCCUUUCCUGAUCAGACAUCUUUGUGCCCCCUUUAGGAAGGAUGGAAUUCUCGGGUGCCAA: 0.327
GGGAGUUCUACAGUCCGACGAUCUUGAGGAUCCUGACACUGAACUGAAGCGCGGGCAUUGGGUUCUCAAGGACUAACAUGCAAUCUGUGAAUUAAAAAUCUCAAUGCACUGUCUAGUGGAAGAUGAAUGGACAUGGAAUUCUCGGGUGCCAA: 0.359

Further values, each from its own experiment
PhoQ, residues 284 288 289 292 302 303 NLMGRA — fold induction (PhoP, residues 12 14 15 18 19 HLGGL (Escherichia coli, UniProt P23836); Sort-seq, measured: YFP reporter; E. coli; PhoQ-PhoP variant library, with: 10 µM Mg2+; baseline: high Mg2+ state, higher = stronger signaling): 2.86

For quick reference, copied from above (block 2):
AGCTAGCG: 0.147
